Results pooled from the literature.
Each line is one published result; not all experiments were run side by side. ± gives the spread as reported.
Organism: Acinetobacter baumannii

| Structure (SMILES) | assay | test system | setting | scale | MIC |
| --- | --- | --- | --- | --- | --- |
| CC[C@H](C)[C@H](NC(=O)[C@@H](CCCNC(=N)N)NC(=O)[C@H](CCCNC(=N)N)NC(=O)[C@H](CCCNC(=N)N)NC(=O)[C@H](Cc1c[nH]c2ccccc12)NC(=O)[C@H](CCCNC(=N)N)NC(=O)[C@@H]1CCCN1C(=O)[C@H](CCCNC(=N)N)NC(=O)[C@@H]1CCCN1C(=O)[C@H](CC(C)C)NC(=O)[C@H](Cc1ccc(O)cc1)NC(=O)[C@@H]1CCCN1C(=O)[C@@H]1CCCN1C(=O)[C@H](CCCCN)NC(=O)[C@H](CC(=O)O)NC(=O)[C@@H](N)C(C)C)C(=O)N[C@@H](Cc1ccc(O)cc1)C(=O)N[C@@H](CC(N)=O)C(=O)N[C@H](CCCNC(=N)N)C(N)=O | broth microdilution | DSM 30008 | 18 h | – | 16 µg/mL |
| CC(C)C[C@@H]1NC(=O)[C@@H](Cc2ccccc2)NC(=O)[C@H](CCN)NC(=O)[C@@H](NC(=O)[C@H](CN)NC(=O)[C@@H](NC(=O)CC(CN)C2CCCCC2)[C@@H](C)O)CCNC(=O)[C@H]([C@@H](C)O)NC(=O)[C@H](CCN)NC(=O)[C@H](CCN)NC1=O (stereo partly shown) | broth microdilution | ATCC 19003, cation-adjusted Mueller-Hinton broth | – | – | 0.25 µg/mL |
| CC[C@@H](C)[C@@H](NC(=O)[C@@H](C)NC(=O)[C@H](NC(=O)[C@@H](CC(=O)O)NC(=O)[C@@H](CCCCN)NC(=O)[C@@H](CO)NC(=O)[C@H](NC(=O)[C@@H](CC(N)=O)NC(=O)[C@@H](C)NC(=O)[C@H](NC(=O)[C@@H](CCC(=O)O)NC(=O)[C@@H](CCCCN)NC(=O)[C@H](NC(=O)[C@H](NC(=O)[C@@H](Cc1c[nH]cn1)NC(=O)[C@@H](CCCCN)NC(=O)[C@H](NC(=O)[C@@H](CCCCN)NC(=O)[C@@H](CCCCN)NC(=O)[C@H](NC(=O)[C@@H](CC(C)C)NC(=O)[C@@H](CCCCN)NC(=O)[C@@H](CC(N)=O)NC(=O)[C@@H](Cc1ccccc1)NC(=O)[C@@H](CCCNC(=N)N)NC(=O)[C@@H](CCCCN)NC(=O)[C@@H](CCCNC(=N)N)NC(=O)[C@@H](Cc1ccccc1)NC(=O)CN)C(C)C)C(C)C)[C@H](C)O)[C@H](C)CC)[C@H](C)O)C(C)C)C(C)C)C(=O)N[C@@H](C(=O)N[C@H](C)C(=O)NCC(=O)N[C@H](CO)C(=O)NCC(=O)N[C@@H](C(=O)N[C@H](C)C(=O)N[C@@H](C(=O)NCC(=O)N[C@H](C)C(=O)N[C@H](C)C(=O)N[C@H](CCSC)C(N)=O)C(C)C)C(C)C)C(C)C | broth microdilution | ATCC 19606, CAMHB | – | – | 64 µg/mL |
| CC[C@H](C)[C@H](NC(=O)[C@H](CCCCN)NC(=O)[C@H](CC(N)=O)NC(=O)[C@H](Cc1c[nH]c2ccccc12)NC(=O)[C@H](Cc1ccccc1)NC(=O)[C@H](CCCCN)NC(=O)[C@H](CCCNC(=N)N)NC(=O)[C@H](CC(C)C)NC(=O)[C@H](Cc1c[nH]c2ccccc12)NC(=O)[C@H](CCCCN)NC(=O)[C@H](CCCNC(=N)N)NC(=O)[C@H](CC(C)C)NC(=O)CNC(C)=O)C(=O)N[C@@H](CCCCN)C(=O)N[C@@H](CCCNC(=N)N)C(N)=O | bacterial growth, broth microdilution | multidrug-resistant | – | – | 6.25 µM |
| CC(C)C[C@H](NC(=O)[C@H](Cc1ccc(O)cc1)NC(=O)[C@@H]1CCCN1C(=O)[C@H](CCCNC(=N)N)NC(=O)[C@@H]1CCCN1C(=O)[C@H](CCCCN)NC(=O)[C@H](CC(=O)O)NC(=O)[C@@H]1CCCN1C(=O)[C@H](CCCNC(=N)N)NC(=O)C1(N)CCCCC1)C(=O)N1CCC[C@H]1C(=O)N[C@@H](CCCNC(=N)N)C(=O)N1CCC[C@H]1C(=O)N[C@@H](CCCNC(=N)N)C(=O)N1CCC[C@H]1C(=O)N1CCC[C@H]1C(=O)N[C@@H](CCCNC(=N)N)C(=O)N1CCC[C@H]1C(=O)N[C@H](C(=O)N[C@@H](CCCNC(=N)N)C(=O)N[C@@H](CSc1c(F)c(F)c(SC[C@H](NC(=O)[C@H](CCCNC(=N)N)NC(=O)[C@@H](NC(=O)[C@@H]2CCCN2C(=O)[C@H](CCCNC(=N)N)NC(=O)[C@@H]2CCCN2C(=O)[C@@H]2CCCN2C(=O)[C@H](CCCNC(=N)N)NC(=O)[C@@H]2CCCN2C(=O)[C@H](CCCNC(=N)N)NC(=O)[C@@H]2CCCN2C(=O)[C@H](CC(C)C)NC(=O)[C@H](Cc2ccc(O)cc2)NC(=O)[C@@H]2CCCN2C(=O)[C@H](CCCNC(=N)N)NC(=O)[C@@H]2CCCN2C(=O)[C@H](CCCCN)NC(=O)[C@H](CC(=O)O)NC(=O)[C@@H]2CCCN2C(=O)[C@H](CCCNC(=N)N)NC(=O)C2(N)CCCCC2)C(C)C)C(=O)NN)c(F)c1F)C(=O)NN)C(C)C | bacterial growth | ATCC 19606, 100% Mueller-Hinton broth | 90 min, 37 °C, strain ATCC 19606 | – | 6.5 ± 0.1 µg/mL |
| CCCCCCCCCCCCCC(=O)N[C@H](CCN)C(=O)N[C@H](C(=O)N[C@@H](CCN)C(=O)N[C@@H](CC(C)C)C(=O)N[C@H]1CCNC(=O)[C@H](CC(=O)O)NC(=O)[C@H](C(C)C)NC(=O)[C@@H](Cc2ccc(O)cc2)NC(=O)[C@H](CCN)NC(=O)[C@H](CC(C)C)NC(=O)[C@@H](Cc2ccccc2)NC1=O)[C@@H](C)O | broth microdilution | BNCC 194496 | – | – | 4 µg/mL |
| CC(C)[C@@H]1NC(=O)[C@@H]2CCCN2C(=O)[C@@H](C)NC(=O)[C@H](CO)NC(=O)[C@H](C)NC(=O)[C@H](C(C)(C)C)NC(=O)[C@H](CCO)NC(=O)[C@H](Cc2c[nH]c3ccccc23)NC(=O)[C@H](CCO)NC(=O)[C@@H](CCN)NC(=O)[C@H](CCC(N)=O)NC(=O)[C@H](CCN)NC(=O)[C@H](Cc2ccc(O)cc2)NC(=O)[C@H]([C@@H](C)O)NC1=O | broth microdilution | multidrug-resistant, CAMHB with 0.002% polysorbate-80 | 16 h, 37 °C | – | > 64 µg/mL |
| C[C@H](N)[C@@H](CCCCCCCCCCCCCCC(=O)CCCCCCC[C@@H](O)[C@@H](C)N)O[C@@H]1O[C@H](CO)[C@H](O)[C@H](O)[C@H]1O | microbial growth, resazurin | ATCC19606 | 6 h | – | 12.6 µM |
| CC[C@@H](C)[C@@H](NC(=O)[C@@H](C)NC(=O)[C@@H](CCCCN)NC(=O)[C@@H](CC(C)C)NC(=O)[C@@H](C)NC(=O)[C@H](NC(=O)[C@@H](Cc1c[nH]cn1)NC(=O)[C@@H](CC(C)C)NC(=O)[C@H](NC(=O)[C@H](NC(=O)[C@@H](CCCCN)NC(=O)[C@@H](CCCCN)NC(=O)[C@@H](C)NC(=O)[C@@H](CO)NC(=O)[C@@H](CCCCN)NC(=O)[C@@H](Cc1ccccc1)NC(=O)[C@H](NC(=O)[C@@H](CCCCN)NC(=O)[C@@H](CC(C)C)NC(=O)[C@@H](Cc1ccccc1)NC(=O)[C@@H](CO)NC(=O)[C@@H](CCCCN)NC(=O)[C@@H](Cc1c[nH]c2ccccc12)NC(=O)[C@@H](CCCCN)NC(C)=O)[C@H](C)O)[C@H](C)O)C(C)C)[C@H](C)O)C(=O)N[C@H](CO)C(=O)N[C@H](CO)C(N)=O | – | 821, Mueller-Hinton broth | 24 h, 37 °C | – | 1.5 µM |
| O=C(NCCNCCO)c1cn(Cc2ccccc2)c2cc(Cl)c(OCc3ccc(Cl)cc3)cc2c1=O | – | ATCC 19606 | – | ≥80% growth inhibition | < 0.25 µg/mL |
